Assay results gathered from unrelated publications.
Numbered parts are unrelated; each lists some results of a single study. Substitutions count along the parent as printed.

Study 1
Target: RING finger protein unkempt homolog, zinc fingers 1-6, GST-SBP tag (UNK, Homo sapiens, UniProt Q9C0B0, residues 30-357)
Chain of UniProt Q9C0B0 (30-357, looked up): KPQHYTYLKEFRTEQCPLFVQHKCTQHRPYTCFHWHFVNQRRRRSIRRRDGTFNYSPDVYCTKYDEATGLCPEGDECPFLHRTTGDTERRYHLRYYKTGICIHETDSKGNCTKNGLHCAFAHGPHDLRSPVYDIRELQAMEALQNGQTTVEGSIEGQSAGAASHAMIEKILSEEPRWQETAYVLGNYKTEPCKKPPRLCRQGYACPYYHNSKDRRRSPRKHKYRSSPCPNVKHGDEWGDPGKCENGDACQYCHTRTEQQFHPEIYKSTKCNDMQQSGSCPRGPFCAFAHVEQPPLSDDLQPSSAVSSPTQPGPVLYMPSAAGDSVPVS
Technique: RNA Bind-n-Seq
Form: RNA
Medium: in vitro
Tested at: not given
Setting: RNA with constant flanks, human and mouse sites, ends assumed
Baseline: input RNA pool
Direction: higher = stronger binding
All sequences stand within: GGGAGUUCUACAGUCCGACGAUC … CAACAGAGGAUUGAGCAUCA
Sequence | bound/input enrichment [ratio]
CGAGAAGCUGUUUGCAUCGUCCUUUCUGAUGAUACUUGUUCUGAUGAGAAGAUUCGGAUGAAUAGAGUUGUUCGGAAUAACCUUCGUGUACGCCUAGGGGAUGUCAUCAGCAUCCAGCCA | 0.141
CAGCCUCAGAGCCCAGACUUCCUGGAUAUUACCAACCCUAAAGCGGUAUUAGAAAAUGCAUUGAGAAACUUCGCCUGUCUGACGACUGGAGAUGUGAUUGCUAUCAACUACAAUGAGAAG | 0.402
CUGCCCUAGAAUUGUUAUGUUGGGCAUCACAGUCAUGAACUUUUGUUUUUCUCCCUUUUUUAGUUUUUUCAAAGAUGGGGGGAAGGGAAAUAUGAGCCUUUGUUGCUUUCAAAACGAGAA | 14.2
AUGUGGGAAGACAAAUGAAGGGAUUUAGAAGCCAAGUAAAUGUCAUUGGGAAGGAGAGCUACCACCACUGAGUGCUGAACAGUAAACUCAUUUUUCAGAGUUAAAAAAUUAUUUAAAAAA | 0.475
AGGACAUCGAGACCCCGGGGCUGCCGCGCCCCCUCUCCCUUCGCAGCCUGGCCCGGCUGCACGGUGGCGGUCCUGAGCCCCCGCCUCCGCCCAAGGAUGGAGAUGCAGCGCAAACGCCCC | 0.138
CUUCAGCUGUCUACACCACAGAAAGCAAGUCAACACCAAGUUUUAUUUUUGUUAUCAGAUGUAGCACAUGCUAAGAAUCCCACCCAUUCCAAUAAAAAACUACCUACCUCUGCUUCAGUU | 0.177
GCUGAUUUUGAGAAGGUUUUCUGCAUUGGACCAGUUUUCAGAGCUGAAGACUCCAAUACCCAUAGACAUCUGACUGAAUUUGUUGGUUUGGAUAUUGAAAUGGCCUUUAAUUAUCAUUAC | 0.608
AAGACACUGAUAGAGGCAGGCCUCCCACAGAAGGUGGCAGAAAGACUUGAUGAAAUAUUUCAGACAGGAUUGGUAGCUUAUGUGGAUCUUGAUGAAAGAGCAAUCGAUGCUCUCAGGGAG | 0.319

Study 2
Target: ABI1, truncated, D143A, DHFR fusion (Arabidopsis thaliana)
Technique: DHFR PCA, deep sequencing
Medium: yeast
Setting: methotrexate growth selection, single substitutions
With: (+)-ABA 2500 µM
Baseline: wild-type fitted maximum
Direction: higher = stronger binding
Starting sequence: PYL1, truncated, DHFR fusion (Arabidopsis thaliana); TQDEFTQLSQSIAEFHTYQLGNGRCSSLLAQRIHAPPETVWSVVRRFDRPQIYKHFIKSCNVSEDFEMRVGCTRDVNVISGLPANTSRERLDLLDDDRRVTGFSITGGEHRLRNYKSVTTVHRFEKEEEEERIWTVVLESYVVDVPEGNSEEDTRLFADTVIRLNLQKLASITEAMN
Substitution | relative binding score
Q2D | 97.8%
V100Q | 94.5%
E4W | 96.3%
G148M | 85.4%
N177M | 94.3%
Q2K | 97.4%
R88Q | 93.6%
A170D | 78.1%
Q19R | 102%
Y141T | -0.0793%
L82R | 15.6%
L156A | 98.5%
V161S | 31.1%
T154I | 82%
H110C | 81.8%
S171G | 94%
V62G | 82%
D3T | 91.4%

Study 3
Target: RNA binding protein fox-1 homolog 2, RRM domain, GST-SBP tag (RBFOX2, Homo sapiens, UniProt O43251-10, residues 100-194)
Technique: RNA Bind-n-Seq
Form: RNA
Medium: in vitro
Tested at: 365 nM
Setting: natural RNA segment, single round, ends assumed
Baseline: no-protein control
Direction: higher = stronger binding
All sequences stand within: GGGAGUUCUACAGUCCGACGAUC … UGGAAUUCUCGGGUGCCAA
Residues (chain): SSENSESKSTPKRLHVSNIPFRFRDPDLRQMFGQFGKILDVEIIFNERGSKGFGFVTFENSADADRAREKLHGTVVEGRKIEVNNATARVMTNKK
Sequence | RBNS enrichment (R)
CAGGGUUUCACUGUGUUGCCCAGGCUGGUCUCAAACUCCUGAGCUCAGGCAAUCUGCCCGCCUUGGCCUCCCAAAGUGCUAGGAUUACAGGUAUGAGCCACCAUGCCCGG | 0.188
UACGGCACUGGAAAGAGUAGAGCCCAGGUGAAGCUUAGGAAAUUGGGAGCUAACACCAAGCAACUGGUUCCGUGGGGGAAGGUUUUAGGGAGCUCAGACUGCUGCUUUCA | 1.83
GAGUGUCCUUUAACUGUGGACCAAAGGCAACCCCUGCAGUGUUUAUAAAACAAUUUUAAGACCAUUCAGGCCACAUAAGAUGAGAAUGCAAUUUUGUAGGAUUACAAAAA | 0.632
CCCAACAGCAUCACUUAGGGGUGUGAAAAGAAGUAUUUUUGAACCUGUUGUCUGGUUUUGAAAAACAAUUAUCUUGUUUUGCAAAUUGUGGAAUGAUGUAAGCAAAUGCU | 0.452
UCCCUGUGAGGCGACAGUACAUGUGAGAAGAGGUACAUUUGUUGGAUUUUUGUUAAUGUAUUUAUUUCAUUCCAGUUUGAUUUAUUUUAAUUGUUGAUACUUAAGUUGUC | 1.2
UGGGCCUGCUGUCUGCGCCUUUCGUAGUGACAGAUGUGGCUGUAGUGUUUAGGUGUUUGGUCUUGCUUCUUGUAUGGCAUUUUUCAAUAAACUUUAAAAAAAAAAAAAAA | 1.44
UUUUAUAUAUAUAUAUAAAAGAACAAAAUGAAAAAAAACACACACACACAAGAGUUUACAGAUUAGUUUAAAUUGAUAAUGAAAUGUGAAGUUUGUCCUAGUUUACAUCU | 0.69
UUUGUACUGCUUGUUUAGGAUAACACACAAAGUUCAGCCUUGAACGCAUGGUGAUCCUCCCCGCUCAGCCUCCUGAGGACUGGGAUUAAAGGUGUGUGCCUCCAUACUCU | 2.92

Study 4
Target: CCNA2, cyclin fold, Cln2 fusion (human)
Technique: yeast growth competition, sequencing
Medium: yeast
Setting: strong parent motif
Baseline: not given
Direction: higher = stronger binding
Starting sequence: E2F1 docking peptide (human); PPVKRRLDFETDH; partner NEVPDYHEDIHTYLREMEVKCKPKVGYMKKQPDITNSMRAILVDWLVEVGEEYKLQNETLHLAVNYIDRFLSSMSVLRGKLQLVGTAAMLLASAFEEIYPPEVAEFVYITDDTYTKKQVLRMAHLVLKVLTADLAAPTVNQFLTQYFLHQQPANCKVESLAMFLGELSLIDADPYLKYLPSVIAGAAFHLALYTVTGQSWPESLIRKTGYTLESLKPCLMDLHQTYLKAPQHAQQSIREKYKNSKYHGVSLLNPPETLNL
Substitution | normalised enrichment score
R6Q | 5.61
R5S | 0.662
V3Y | 4.65
D8H | 6.08
E10D | 5.88
P2E | 5.79
F9P | 0.107
R5Y | 1.05
D8V | 5.28
T11S | 6.01
L7E | -0.0958
T11F | 5.98
V3S | 6.14
R6C | 5.55
K4L | 3.72
T11V | 5.59
F9Q | 0.481
